Measured values of several laboratories.
Compare with care: the assays were run in different laboratories. Numbers after ± are the reported error.

Compound | cell line | test | test system | conditions | how to read | endpoint | result
CCc1ccccc1NC(=O)C(C)Sc1nnc(C2CCN(C(=O)Nc3ccccc3)CC2)n1CC (stereo not shown) | human blood mononuclear cells | MTT | – | 0.25 mM, 2 h, pH 7.4 | – | viability | 76.3 ± 2.8%
CC(C)C[C@H](NC(=O)[C@H](C)NC(=O)[C@H](CCCCN)NC(=O)[C@H](C)NC(=O)[C@H](CCCNC(=N)N)NC(=O)[C@H](C)NC(=O)[C@H](CCC(N)=O)NC(=O)[C@H](CCCNC(=N)N)NC(=O)[C@H](C)NC(=O)[C@H](C)NC(=O)[C@H](C)NC(=O)[C@H](CCCNC(=N)N)NC(=O)[C@H](C)NC(=O)[C@H](Cc1ccc(O)cc1)NC(=O)CCNC(=S)Nc1ccc2c(c1)C(=O)OC21c2ccc(O)cc2Oc2cc(O)ccc21)C(=O)N[C@@H](C)C(=O)N[C@@H](CCCNC(=N)N)C(=O)N[C@@H](CCC(N)=O)C(=O)N[C@@H](CC(C)C)C(=O)NCC(=O)N[C@H](C(=O)N[C@@H](C)C(=O)N[C@@H](C)C(N)=O)C(C)C | mesothelial cells | flow cytometry | – | 30 µM, together with: 100 µM EIPA | – | uptake | inhibited
CC(C)=CCCC(C)C1CCC2(C)C3=C(CCC12C)C1(C)CCC(=O)C(C)(C)C1CC3 (stereo not shown) | SK-LU-1 | cell growth or viability, SRB | – | 50 µM | – | inhibition | 31.3%
CCC1(C)CCN(Cc2cc(N(C)C)c3c(c2O)C(=O)C2=C(O)[C@]4(O)C(=O)C(C(N)=O)=C(O)[C@@H](N(C)C)[C@@H]4C[C@@H]2C3)CC1 | CHO | cytotoxicity, resazurin | – | 10% fetal calf serum | – | TC50 | > 100 µg/mL
CCN(CC)C(=O)C(C)Sc1nnc(C2CCN(C(=O)Nc3ccccc3)CC2)n1CC (stereo not shown) | human blood mononuclear cells | MTT | – | 0.25 mM, 2 h, pH 7.4 | – | viability | 81.3 ± 2.8%
O=C(NCCCCCCCNc1n[n+]([O-])c2ccccc2[n+]1[O-])C(F)(F)F | HCT-116 | – | – | – | reference: normoxic IC50 over hypoxic IC50 | hypoxic cytotoxicity ratio | 2.1
CN(C)c1cc(CNCCC(C)(C)C)c(O)c2c1C[C@H]1C[C@H]3[C@H](N(C)C)C(O)=C(C(N)=O)C(=O)[C@@]3(O)C(O)=C1C2=O | CHO | cytotoxicity, resazurin | – | 10% fetal calf serum | – | TC50 | > 100 µg/mL
C[C@H](CCC=O)[C@@H]1CC[C@]2(C)C3=C(CC[C@@]12C)[C@@]1(C)CC[C@H](O)C(C)(C)[C@@H]1CC3 | SK-LU-1 | cell growth or viability, SRB | – | 50 µM | – | inhibition | 88.4%
CCn1c(SC(C)C(=O)Nc2cccc(C)c2C)nnc1C1CCN(C(=O)Nc2ccccc2)CC1 (stereo not shown) | human blood mononuclear cells | MTT | – | 0.25 mM, 2 h, pH 7.4 | – | viability | 78.6 ± 2.8%
COc1ccc(-c2nc(-c3ccccc3OC)[nH]c2-c2ccc(OC)cc2)cc1 | MRC-5 | cytotoxicity, resazurin | – | 7 days, 5% fetal calf serum | – | EC50 | > 64 µM
COC(=O)COc1ccc(NC(=O)C2(c3ccc(Cl)c(Cl)c3)CC2)c(C)c1 | U-937 | LDH release | – | 25 µM, 4 h | reference: Triton X-100 | cytotoxicity | -1%
COc1cccc2c1C(=O)c1c(O)c3c(c(O)c1C2=O)CC(O)(C(=O)CO)CC3OC1CC(NC(=O)C[C@H](N)C(=O)O)C(O)C(C)O1 (stereo partly shown) | H1299 (LAT1-negative) | HPLC | – | 20 µg/mL, 2 h, serum-free medium | – | cellular uptake | 0.016 ± 0.0012 µg/mL
CC(C)(C)n1nc(-c2ccc(Cl)cc2)c2c(N)ncnc21 | L929 | western blot | – | 3 h, 10% FBS | – | lowest concentration with caspase cleavage | 25 µM
CCNc1cc2c(cc1C)C1(c3cc(C)c(NCC)cc3O2)c2ccccc2C(=O)N1N=Cc1c[c-]c(-c2ccccn2)cc1.Cc1c(C)c(-c2ccc(-c3ccccc3)cc2)[c-](C)c1C.[Cl-].[Ir+3] | A549 | confocal microscopy | – | 1 × IC50, 4 °C, together with: CCCP 50 µM | – | cellular uptake | decreased
N=C(N)Nc1nc2ccccc2s1 | WI-38 | MTT | – | concentration not given, 24 h | – | cytotoxicity | not toxic
Cc1cnc(Nc2ccc(C3CCN(C)CC3)c(F)c2)nc1Nc1ccc(Cl)c(NS(=O)(=O)C(C)(C)C)c1 | human mesenchymal stem cells | MTS | – | concentration not given, 24 and 48 h | – | cytotoxicity | not toxic
CCN(CC)c1ccc(C=NNC(=O)c2ccccn2)c(O)c1 | rabbit erythrocytes | – | – | 1 h | – | HC50 | > 256 µg/mL
CC(C)CNCc1cc(N(C)C)c2c(c1O)C(=O)C1=C(O)[C@]3(O)C(=O)C(C(N)=O)=C(O)[C@@H](N(C)C)[C@@H]3C[C@@H]1C2 | CHO | cytotoxicity, resazurin | – | 10% fetal calf serum | – | TC50 | > 100 µg/mL
Oc1cc(NCCCNCc2cc(Cl)cc(Cl)c2)nc2ccccc12 | CRL-8155 and HepG2 | cytotoxicity | – | – | – | EC50 | ≥ 20 µM
O=C1/C(=C/c2ccc3c(c2)OCCO3)SC(=S)N1[C@@H]1O[C@H](CO)[C@@H](O)[C@H](O)[C@H]1O | MCF-10A | cell growth or viability, MTT | – | 100 µM, 48 h | – | viability | ~75%

Compound | cell line | test | test system | conditions | how to read | endpoint | result
C=CC(C)(C)c1c(O)cc2c(c1O)C(=O)CC(c1ccccc1)O2 (stereo not shown) | U-937 | cytotoxicity, resazurin | RPMI with FBS | 24 h | – | EC50 | 59.9 ± 5.2 µg/mL
Fc1ccc2nc(NCCCN[C@@H]3CCNc4c(Cl)cc(Cl)cc43)[nH]c2n1 | CRL-8155 and HepG2 | cytotoxicity | – | – | – | EC50 | ≥ 20 µM
O=C(O)CNc1nc(Cl)nc(NNC(=O)c2ccc(Nc3nc(Nc4ccc(C(=O)NNc5nc(Cl)nc(NCC(=O)O)n5)cc4)nc(Nc4ccc(C(=O)NNc5nc(Cl)nc(NCC(=O)O)n5)cc4)n3)cc2)n1 | WI-38 cells | cell viability, MTT | – | 72 h | – | maximum non-toxic concentration | 17.1 nM
CC1=CC2(C)C(=C(C)C3C4CC(C)CC(C)C4C4Oc5ccc(cc5)CC5(O)NC(=O)C(=C(O)C2C43)C5Nc2ncnc3c2ncn3C2OC(CO)C(O)C2O)C1C (stereo not shown) | NFκB-MDA-MB-231 | NF-κB reporter gene | – | – | reference: cytotoxicity IC50 over NF-κB IC50 | selectivity ratio | ~3
O=C(CNc1nc(NNC(=O)c2ccc(Nc3nc(Nc4ccc(C(=O)NNc5nc(NCC(=O)NO)nc(N6CCCCC6)n5)cc4)nc(Nc4ccc(C(=O)NNc5nc(NCC(=O)NO)nc(N6CCCCC6)n5)cc4)n3)cc2)nc(N2CCCCC2)n1)NO | WI-38 cells | cell viability, MTT | – | 72 h | – | maximum non-toxic concentration | 15 ± 0.3 nM
NS(=O)(=O)c1ccc(NC(=O)NN[C@@H]2O[C@H](CO)[C@@H](O)[C@H](O)[C@@H]2O)cc1 | rabbit erythrocytes | – | – | 32 µg/mL, 3 h | reference: complete lysis | hemolysis | 3.15%
CCn1c(SC(C)C(=O)Nc2ccc(C)c(C)c2)nnc1C1CCN(C(=O)Nc2ccccc2)CC1 (stereo not shown) | human blood mononuclear cells | MTT | – | 0.25 mM, 2 h, pH 7.4 | – | viability | 79.3 ± 2.9%
O=C(CNc1nc(NNC(=O)c2ccc(Nc3nc(Nc4ccc(C(=O)NNc5nc(NCC(=O)NO)nc(N6CCOCC6)n5)cc4)nc(Nc4ccc(C(=O)NNc5nc(NCC(=O)NO)nc(N6CCOCC6)n5)cc4)n3)cc2)nc(N2CCOCC2)n1)NO | WI-38 cells | cell viability, MTT | – | 72 h | – | maximum non-toxic concentration | 1.7 ± 0.1 nM
CN(C)c1cc(CN2CCCCC2)c(O)c2c1C[C@H]1C[C@H]3[C@H](N(C)C)C(O)=C(C(N)=O)C(=O)[C@@]3(O)C(O)=C1C2=O | CHO | cytotoxicity, resazurin | – | 10% fetal calf serum | – | TC50 | > 100 µg/mL
CC1=NNC(c2cn(CC(=O)Nc3nc(-c4ccccc4)cs3)nn2)C1 (stereo not shown) | WI-38 | MTT | – | 72 h, 100% viability, 10% FBS | – | safe concentration | 187 ± 8 nM
CC(=O)N[C@H](C(=O)N[C@H](C(=O)N[C@@H](CCCNC(=N)N)C(=O)N1Cc2ccccc2C[C@H]1C(=O)N[C@@H](Cc1ccccc1)C(N)=O)C1CCCCC1)C(C)C | human PBMC | Bio-Plex multiplex, measured: GM-CSF | – | 500 µg/mL, 24 h | – | cytokine level | < 1.3 pg/mL
CC(=O)O[C@H]1CC[C@]2(C)C3=C(CC[C@H]2C1(C)C)[C@@]1(C)CC[C@@H]([C@H](C)CCC=C(C)C)[C@]1(C)CC3 | SK-LU-1 | cell growth or viability, SRB | – | 50 µM | – | inhibition | 40%
CCn1c(SC(C)C(=O)Nc2cccc(C)c2)nnc1C1CCN(C(=O)Nc2ccccc2)CC1 (stereo not shown) | human blood mononuclear cells | MTT | – | 0.25 mM, 2 h, pH 7.4 | – | viability | 84.4 ± 2.9%
Clc1cc(Cl)cc(CNCCCNc2nc3ccccc3[nH]2)c1 | CRL-8155 and HepG2 | cytotoxicity | – | – | – | EC50 | ~5 µM
CCn1c(SC(C)C(=O)Nc2ccc(C)cc2C)nnc1C1CCN(C(=O)Nc2ccccc2)CC1 (stereo not shown) | human blood mononuclear cells | MTT | – | 0.25 mM, 2 h, pH 7.4 | – | viability | 86.2 ± 2.7%
O=C(O)CNc1nc(NCC(=O)O)nc(NNC(=O)c2ccc(Nc3nc(Nc4ccc(C(=O)NNc5nc(NCC(=O)O)nc(NCC(=O)O)n5)cc4)nc(Nc4ccc(C(=O)NNc5nc(NCC(=O)O)nc(NCC(=O)O)n5)cc4)n3)cc2)n1 | WI-38 cells | cell viability, MTT | – | 72 h | – | maximum non-toxic concentration | 13.8 ± 0.2 nM
Fc1cc2nc(NCCCNCc3cc(Cl)cc(Cl)c3)[nH]c2cc1F | CRL-8155 and HepG2 | cytotoxicity | – | – | – | EC50 | ~10 µM
CC(=O)Nc1ccc(/C=C/c2nc3ccc(Br)cc3nc2/C=C/c2ccc(NC(C)=O)cc2)cc1 | Hs68 | MTT | – | concentration not given, 72 h | reference: 5-fluorouracil | cytotoxicity fold lower | ~3 fold
C[C@@H](CNCc1cc(Cl)cc(Cl)c1)CNc1nc2cccnc2[nH]1 | CRL-8155 and HepG2 | cytotoxicity | – | – | – | EC50 | ≥ 20 µM
CSCC[C@H](NC(=O)[C@H](CCC(N)=O)NC(=O)[C@H](Cc1ccc(O)cc1)NC(=O)[C@H](CO)NC(=O)[C@@H](N)Cc1ccc(O)cc1)C(=O)N[C@@H](C)C(=O)N[C@@H](CC(C)C)C(=O)N[C@H](C(=O)N1CCC[C@H]1C(=O)N[C@H](C(=O)N[C@H](C(=O)N[C@@H](CCCCNC(=O)c1ccc2c(c1)C(=O)OC21c2ccc(O)cc2Oc2cc(O)ccc21)C(=O)N[C@H](C(=O)N[C@@H](CC(C)C)C(=O)O)[C@@H](C)O)C(C)C)C(C)C)[C@@H](C)O | U-937 | single-cell capillary electrophoresis | – | 100 µM, pinocytic loading | – | time to degradation | ≤ 20 min

A few entries again:
Compound | cell line | test | test system | conditions | how to read | endpoint | result
CCN(CC)c1ccc(C=NNC(=O)c2ccccn2)c(O)c1 | rabbit erythrocytes | – | – | 1 h | – | HC50 | > 256 µg/mL
CCN(CC)C(=O)C(C)Sc1nnc(C2CCN(C(=O)Nc3ccccc3)CC2)n1CC (stereo not shown) | human blood mononuclear cells | MTT | – | 0.25 mM, 2 h, pH 7.4 | – | viability | 81.3 ± 2.8%
CC1=CC2(C)C(=C(C)C3C4CC(C)CC(C)C4C4Oc5ccc(cc5)CC5(O)NC(=O)C(=C(O)C2C43)C5Nc2ncnc3c2ncn3C2OC(CO)C(O)C2O)C1C (stereo not shown) | NFκB-MDA-MB-231 | NF-κB reporter gene | – | – | reference: cytotoxicity IC50 over NF-κB IC50 | selectivity ratio | ~3
CN(C)c1cc(CNCCC(C)(C)C)c(O)c2c1C[C@H]1C[C@H]3[C@H](N(C)C)C(O)=C(C(N)=O)C(=O)[C@@]3(O)C(O)=C1C2=O | CHO | cytotoxicity, resazurin | – | 10% fetal calf serum | – | TC50 | > 100 µg/mL
